Measured values from different studies.
Each numbered part is a random draw from the data of one study; scales do not carry over between parts.
UniProt Q16620, sequence (whole entry, looked up): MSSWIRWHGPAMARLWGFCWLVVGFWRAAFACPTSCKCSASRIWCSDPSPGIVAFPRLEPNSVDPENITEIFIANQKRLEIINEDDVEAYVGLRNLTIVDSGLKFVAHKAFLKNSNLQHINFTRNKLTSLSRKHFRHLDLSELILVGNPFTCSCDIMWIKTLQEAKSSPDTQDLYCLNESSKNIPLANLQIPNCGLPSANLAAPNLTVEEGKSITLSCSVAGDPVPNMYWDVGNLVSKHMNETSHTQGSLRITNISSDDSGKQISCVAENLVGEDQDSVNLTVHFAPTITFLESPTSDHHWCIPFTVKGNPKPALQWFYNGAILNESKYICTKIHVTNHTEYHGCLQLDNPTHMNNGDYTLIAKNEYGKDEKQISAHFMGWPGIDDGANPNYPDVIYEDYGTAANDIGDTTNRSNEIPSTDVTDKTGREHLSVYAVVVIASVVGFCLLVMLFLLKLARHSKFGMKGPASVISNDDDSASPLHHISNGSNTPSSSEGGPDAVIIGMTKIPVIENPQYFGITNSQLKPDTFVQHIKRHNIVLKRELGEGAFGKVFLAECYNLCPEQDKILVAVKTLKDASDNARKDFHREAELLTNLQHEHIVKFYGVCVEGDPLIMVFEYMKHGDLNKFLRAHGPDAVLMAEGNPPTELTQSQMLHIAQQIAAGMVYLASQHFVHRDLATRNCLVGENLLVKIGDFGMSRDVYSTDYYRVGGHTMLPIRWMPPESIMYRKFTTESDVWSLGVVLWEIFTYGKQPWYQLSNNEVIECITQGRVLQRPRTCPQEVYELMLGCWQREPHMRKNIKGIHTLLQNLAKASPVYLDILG
UniProt O94768, sequence (whole entry, looked up): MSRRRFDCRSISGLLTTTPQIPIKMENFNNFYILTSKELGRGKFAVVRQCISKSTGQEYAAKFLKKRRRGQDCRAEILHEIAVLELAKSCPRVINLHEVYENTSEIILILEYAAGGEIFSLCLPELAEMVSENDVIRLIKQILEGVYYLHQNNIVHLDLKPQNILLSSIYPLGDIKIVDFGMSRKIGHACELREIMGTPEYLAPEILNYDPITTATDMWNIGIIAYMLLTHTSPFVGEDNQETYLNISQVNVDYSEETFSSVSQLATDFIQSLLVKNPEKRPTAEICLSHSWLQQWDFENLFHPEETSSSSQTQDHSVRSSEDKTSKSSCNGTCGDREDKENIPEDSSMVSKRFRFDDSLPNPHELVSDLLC
UniProt P15056, sequence (whole entry, unmodified, looked up): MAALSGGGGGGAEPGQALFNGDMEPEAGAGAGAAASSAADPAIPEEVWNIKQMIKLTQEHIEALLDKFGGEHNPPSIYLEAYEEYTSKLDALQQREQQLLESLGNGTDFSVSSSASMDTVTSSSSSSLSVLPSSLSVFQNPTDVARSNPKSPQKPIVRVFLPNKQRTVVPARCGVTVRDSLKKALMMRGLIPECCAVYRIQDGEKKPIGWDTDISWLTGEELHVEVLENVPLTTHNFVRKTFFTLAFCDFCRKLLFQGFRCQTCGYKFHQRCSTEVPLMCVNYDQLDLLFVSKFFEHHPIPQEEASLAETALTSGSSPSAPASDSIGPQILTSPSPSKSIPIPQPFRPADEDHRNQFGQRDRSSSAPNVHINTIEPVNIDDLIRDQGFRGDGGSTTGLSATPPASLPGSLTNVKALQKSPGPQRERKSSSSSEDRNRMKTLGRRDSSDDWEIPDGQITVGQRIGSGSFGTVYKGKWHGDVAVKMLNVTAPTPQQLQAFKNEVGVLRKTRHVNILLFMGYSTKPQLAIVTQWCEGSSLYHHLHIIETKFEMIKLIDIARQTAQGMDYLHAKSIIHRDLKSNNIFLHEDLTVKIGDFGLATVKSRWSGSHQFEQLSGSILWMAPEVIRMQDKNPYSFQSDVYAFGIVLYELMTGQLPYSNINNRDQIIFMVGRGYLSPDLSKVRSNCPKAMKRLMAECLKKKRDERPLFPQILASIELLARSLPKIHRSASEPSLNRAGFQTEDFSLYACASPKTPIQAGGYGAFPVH
UniProt Q8N752, sequence (whole entry, looked up): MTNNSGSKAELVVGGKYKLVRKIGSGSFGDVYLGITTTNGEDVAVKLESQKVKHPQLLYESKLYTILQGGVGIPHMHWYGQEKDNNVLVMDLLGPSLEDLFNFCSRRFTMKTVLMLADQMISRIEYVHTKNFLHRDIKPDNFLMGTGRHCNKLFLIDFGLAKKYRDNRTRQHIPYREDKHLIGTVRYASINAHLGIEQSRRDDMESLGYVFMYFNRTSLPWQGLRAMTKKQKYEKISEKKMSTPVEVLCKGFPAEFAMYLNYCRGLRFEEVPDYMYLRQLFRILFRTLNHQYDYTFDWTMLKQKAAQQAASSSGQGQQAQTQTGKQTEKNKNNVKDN
UniProt P45983, sequence (whole entry, looked up): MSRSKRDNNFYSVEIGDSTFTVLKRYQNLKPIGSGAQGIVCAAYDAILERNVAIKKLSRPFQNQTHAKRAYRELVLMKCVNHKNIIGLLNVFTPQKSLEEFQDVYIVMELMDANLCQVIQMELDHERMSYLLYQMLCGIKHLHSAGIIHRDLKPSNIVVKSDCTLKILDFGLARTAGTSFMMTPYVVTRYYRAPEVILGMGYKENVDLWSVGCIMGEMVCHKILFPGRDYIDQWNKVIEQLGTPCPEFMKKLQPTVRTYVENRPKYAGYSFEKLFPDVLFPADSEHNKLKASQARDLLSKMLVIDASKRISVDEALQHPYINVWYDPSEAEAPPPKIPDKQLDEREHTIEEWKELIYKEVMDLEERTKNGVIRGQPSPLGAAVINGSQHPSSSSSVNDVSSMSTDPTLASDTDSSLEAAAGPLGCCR

Block 1
Structure (SMILES): COc1ccc(-c2c(Nc3ccccn3)[nH]c3c(C4=CCCCC4)c(-c4ccccc4)nn3c2=O)cc1
Medium: plasma
Route: oral
cancer patients; 150 mg, 24 h post-dose, single dose — “plasma concentration, geometric mean”: 694 ng/mL.
It gave 9530 ng/mL for “plasma concentration, geometric mean” (LC-MS/MS; human; 200 mg twice daily, 8 h).
It gave 10300 ng/mL for “plasma concentration, geometric mean” (LC-MS/MS; human; 200 mg twice daily, 0.5 h).
For cancer patients; 50 mg, 1 h post-dose, single dose: “plasma concentration, geometric mean” read 82.2 ng/mL.
The “plasma concentration, geometric mean” was 12300 ng/mL (LC-MS/MS; human; 200 mg twice daily, 3 h).
For LC-MS/MS; human; 200 mg twice daily, 3 h, single dose: “plasma concentration, geometric mean” read 1320 ng/mL.
LC-MS/MS; human; 200 mg twice daily, 4 h, single dose — “plasma concentration, geometric mean”: 1400 ng/mL.
It gave 277 ng/mL for “plasma concentration, geometric mean” (LC-MS/MS; human; 200 mg twice daily, 48 h, single dose).
For cancer patients; 200 mg, 48 h post-dose, single dose: “plasma concentration, geometric mean” read 457 ng/mL.
The “plasma concentration, geometric mean” was 3180 ng/mL (human patients; 400 mg once daily, 3 h, cycle 1).

Block 2
Compound: O=C(N1CCS(=O)(=O)CC1)N1C[C@H](c2ccc(OC(F)(F)F)cc2)C[C@H](c2nc(C3CC3)no2)C1
Effect on: cell-free assay
Method: competition with immobilised ligand
Concentration: 1 µM
For Casein kinase I isoform alpha-like (CSNK1A1L, Homo sapiens, UniProt Q8N752): remaining binding read 100%.
It gave 100% for remaining binding (Serine/threonine-protein kinase RIO2 (RIOK2, Homo sapiens, UniProt Q9BVS4)).
Serine/threonine-protein kinase B-raf (BRAF, Homo sapiens, UniProt P15056, V600E) — remaining binding: 100%.
It gave 100% for remaining binding (Tyrosine-protein kinase ITK/TSK (ITK, Homo sapiens, UniProt Q08881)).
It gave 95% for remaining binding (Receptor tyrosine-protein kinase erbB-4 (ERBB4, Homo sapiens, UniProt Q15303)).
For Epidermal growth factor receptor (EGFR, Homo sapiens, UniProt P00533): remaining binding read 100%.
It gave 82% for remaining binding (Mitogen-activated protein kinase 8 (MAPK8, Homo sapiens, UniProt P45983)).
The remaining binding was 94% (BDNF/NT-3 growth factors receptor (NTRK2, Homo sapiens, UniProt Q16620)).
Serine/threonine-protein kinase 17B (STK17B, Homo sapiens, UniProt O94768) — remaining binding: 100%.

Block 3
Organism: Sarcocystis neurona
Effect on: parasite activity
Concentration: 10 µM
Time: 96 h
Under activity class, `OCCN(CCO)c1nc(N2CCCCC2)c2nc(N(CCO)CCO)nc(N3CCCCC3)c2n1` is recorded as “inactive”.
`CCCc1c(OCCCCc2nnn[nH]2)ccc(C(C)=O)c1O` — result for activity class: “inactive”.
For `CCOC(=O)[C@H](CCc1ccccc1)N[C@@H](C)C(=O)N1Cc2ccccc2C[C@H]1C(=O)O`, activity class read “inactive”.
`CN1CCN(C2=Nc3ccccc3Oc3ccc(Cl)cc32)CC1` — result for activity class: “inactive”.
For `CCCOc1ccc(C(=O)OCCN(CC)CC)cc1N`, activity class read “inactive”.
`CN(C)c1ccc(O)c2c1C[C@H]1C[C@H]3[C@H](N(C)C)C(O)=C(C(N)=O)C(=O)[C@@]3(O)C(O)=C1C2=O` — result for activity class: “inactive”.
`CC[C@H]1OC(=O)[C@H](C)[C@@H](O[C@H]2C[C@@](C)(OC)[C@@H](O)[C@H](C)O2)[C@H](C)[C@@H](O[C@@H]2O[C@H](C)C[C@H](N(C)C)[C@H]2O)[C@](C)(OC)C[C@@H](C)C(=O)[C@H](C)[C@@H](O)[C@]1(C)O` — result for activity class: “inactive”.
Under activity class, `CC(=O)N1CCN(c2ccc(OCC3COC(Cn4ccnc4)(c4ccc(Cl)cc4Cl)O3)cc2)CC1` (stereo not drawn) is recorded as “inactive”.

Block 4
Target: Serine/threonine-protein kinase ULK2 (ULK2, Homo sapiens, UniProt Q8IYT8)
UniProt Q8IYT8, sequence (whole entry, looked up): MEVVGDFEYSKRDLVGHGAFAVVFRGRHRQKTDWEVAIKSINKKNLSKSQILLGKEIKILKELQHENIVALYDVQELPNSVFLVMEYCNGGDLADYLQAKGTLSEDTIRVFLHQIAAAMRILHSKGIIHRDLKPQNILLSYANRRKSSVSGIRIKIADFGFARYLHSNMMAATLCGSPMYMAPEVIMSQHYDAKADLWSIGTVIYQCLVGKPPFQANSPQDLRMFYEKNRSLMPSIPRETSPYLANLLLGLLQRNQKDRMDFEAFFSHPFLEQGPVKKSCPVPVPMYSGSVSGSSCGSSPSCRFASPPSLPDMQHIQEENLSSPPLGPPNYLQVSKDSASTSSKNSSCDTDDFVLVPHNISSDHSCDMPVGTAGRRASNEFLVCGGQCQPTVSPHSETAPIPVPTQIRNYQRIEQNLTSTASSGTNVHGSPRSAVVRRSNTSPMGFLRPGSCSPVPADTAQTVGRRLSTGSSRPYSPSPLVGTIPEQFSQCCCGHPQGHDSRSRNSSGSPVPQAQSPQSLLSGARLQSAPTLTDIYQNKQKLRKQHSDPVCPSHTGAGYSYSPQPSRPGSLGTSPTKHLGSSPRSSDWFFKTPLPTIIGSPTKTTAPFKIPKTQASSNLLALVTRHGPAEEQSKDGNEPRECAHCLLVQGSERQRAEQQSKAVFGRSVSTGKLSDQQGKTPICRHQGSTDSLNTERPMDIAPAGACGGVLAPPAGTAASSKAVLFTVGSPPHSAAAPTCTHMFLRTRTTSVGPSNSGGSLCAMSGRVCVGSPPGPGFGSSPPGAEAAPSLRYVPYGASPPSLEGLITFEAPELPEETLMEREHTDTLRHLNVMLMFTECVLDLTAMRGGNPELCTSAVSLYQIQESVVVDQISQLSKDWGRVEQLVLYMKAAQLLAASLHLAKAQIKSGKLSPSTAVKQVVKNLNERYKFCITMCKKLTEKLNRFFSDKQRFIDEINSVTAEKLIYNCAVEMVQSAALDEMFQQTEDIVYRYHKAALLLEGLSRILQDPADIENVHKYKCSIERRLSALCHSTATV
Effect on: enzyme activity
Mode: inhibitor
Concentration: 0.5 µM
Reference: control
The remaining activity of `O=c1c2ccccc2[nH]c(=S)n1CCN1CCC(=C(c2ccc(F)cc2)c2ccc(F)cc2)CC1` is reported as 96.5%.
The remaining activity of `COc1cc2nccc(Oc3ccc(NC(=S)NC(=O)c4ccccc4C)cc3)c2cc1OC` is reported as 88.8%.
The remaining activity of `N#CC(C#N)=C(N)/C(C#N)=C/c1ccc(O)cc1` is reported as 105%.
For `NCCNc1ncc(C(N)=O)c(Nc2cccc(C(F)(F)F)c2)n1`, the remaining activity was 91.4%.
For `COc1ccc(CNC(=O)Nc2ncc([N+](=O)[O-])s2)cc1`, the remaining activity was 93.4%.
The remaining activity of `Cn1sc(=O)n(Cc2ccccc2)c1=O` is reported as 105%.
For `CO[C@H]1C[C@@H]2CC[C@@H](C)[C@@](O)(O2)C(=O)C(=O)N2CCCC[C@H]2C(=O)O[C@H]([C@H](C)C[C@@H]2CC[C@@H](O)[C@H](OC)C2)CC(=O)[C@H](C)/C=C(\C)[C@@H](O)[C@@H](OC)C(=O)[C@H](C)C[C@H](C)/C=C/C=C/C=C/1C`, the remaining activity was 120%.
With `CC(C)[C@H](CO)Nc1nc(Nc2cc(N)cc(Cl)c2)c2ncn(C(C)C)c2n1` the remaining activity was 74.9%.
`Cc1cccc(-c2[nH]c(C(C)(C)C)nc2-c2ccc3c(c2)OCO3)n1` has a remaining activity of 75.4%.
`COc1ccc(C(=O)Nc2sc3c(c2C(N)=O)CCCC3)cc1OC` gave a remaining activity of 105%.
The remaining activity of `Oc1ccc(-c2nc(-c3ccncc3)c(-c3ccc(F)cc3)[nH]2)cc1` is reported as 97.3%.
The remaining activity of `COc1cc2ncnc(Nc3ccc(Oc4ccccc4)cc3)c2cc1OC` is reported as 97.8%.
The remaining activity of `C#Cc1cccc(Nc2ncnc3cc(OCCOC)c(OCCOC)cc23)c1` is reported as 98.7%.
`CCOC(=O)c1c(C)[nH]c(/C=C2\C(=O)Nc3ccccc32)c1C` has a remaining activity of 105%.
For `O=C(CCCc1ccc(-c2ccccc2F)cc1)Nc1ccc(O)cc1`, the remaining activity was 116%.

Some of these lines once more (block 4):
For `CO[C@H]1C[C@@H]2CC[C@@H](C)[C@@](O)(O2)C(=O)C(=O)N2CCCC[C@H]2C(=O)O[C@H]([C@H](C)C[C@@H]2CC[C@@H](O)[C@H](OC)C2)CC(=O)[C@H](C)/C=C(\C)[C@@H](O)[C@@H](OC)C(=O)[C@H](C)C[C@H](C)/C=C/C=C/C=C/1C`, the remaining activity was 120%.
With `CC(C)[C@H](CO)Nc1nc(Nc2cc(N)cc(Cl)c2)c2ncn(C(C)C)c2n1` the remaining activity was 74.9%.
`Cc1cccc(-c2[nH]c(C(C)(C)C)nc2-c2ccc3c(c2)OCO3)n1` has a remaining activity of 75.4%.
`COc1ccc(C(=O)Nc2sc3c(c2C(N)=O)CCCC3)cc1OC` gave a remaining activity of 105%.
The remaining activity of `Oc1ccc(-c2nc(-c3ccncc3)c(-c3ccc(F)cc3)[nH]2)cc1` is reported as 97.3%.
The remaining activity of `COc1cc2ncnc(Nc3ccc(Oc4ccccc4)cc3)c2cc1OC` is reported as 97.8%.
